Assay results from different studies.
Lines come from different studies, so protocols differ. Values joined by “and” are separate records of one study, mostly repeats; a detail may differ. ± gives the spread as reported. Converted amounts (≈) assume the structure as drawn.
Chain of UniProt Q8IVT5 (whole entry, looked up): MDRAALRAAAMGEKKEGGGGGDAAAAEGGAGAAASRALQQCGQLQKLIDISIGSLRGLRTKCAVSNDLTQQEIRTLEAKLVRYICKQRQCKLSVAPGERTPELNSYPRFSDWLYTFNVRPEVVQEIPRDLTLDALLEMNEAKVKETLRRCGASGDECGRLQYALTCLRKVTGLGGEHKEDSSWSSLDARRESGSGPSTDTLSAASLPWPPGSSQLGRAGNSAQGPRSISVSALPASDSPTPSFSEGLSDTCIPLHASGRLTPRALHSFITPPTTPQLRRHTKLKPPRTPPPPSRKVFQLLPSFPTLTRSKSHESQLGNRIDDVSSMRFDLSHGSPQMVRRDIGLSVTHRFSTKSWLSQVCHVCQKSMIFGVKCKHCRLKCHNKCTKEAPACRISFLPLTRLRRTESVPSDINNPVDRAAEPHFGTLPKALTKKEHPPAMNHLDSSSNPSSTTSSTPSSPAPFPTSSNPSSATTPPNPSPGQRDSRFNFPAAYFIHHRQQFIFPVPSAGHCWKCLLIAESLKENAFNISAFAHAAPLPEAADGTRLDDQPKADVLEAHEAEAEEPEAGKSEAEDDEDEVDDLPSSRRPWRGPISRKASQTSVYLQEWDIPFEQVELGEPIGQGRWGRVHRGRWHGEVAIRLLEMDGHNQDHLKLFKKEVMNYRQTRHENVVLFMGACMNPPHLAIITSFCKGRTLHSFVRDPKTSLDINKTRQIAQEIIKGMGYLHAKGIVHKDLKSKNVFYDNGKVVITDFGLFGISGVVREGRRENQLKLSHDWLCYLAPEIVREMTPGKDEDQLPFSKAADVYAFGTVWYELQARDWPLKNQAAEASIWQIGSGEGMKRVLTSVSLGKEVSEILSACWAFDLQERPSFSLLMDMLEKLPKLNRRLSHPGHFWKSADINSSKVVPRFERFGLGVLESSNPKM
Chain of UniProt Q96FL8 (whole entry, looked up): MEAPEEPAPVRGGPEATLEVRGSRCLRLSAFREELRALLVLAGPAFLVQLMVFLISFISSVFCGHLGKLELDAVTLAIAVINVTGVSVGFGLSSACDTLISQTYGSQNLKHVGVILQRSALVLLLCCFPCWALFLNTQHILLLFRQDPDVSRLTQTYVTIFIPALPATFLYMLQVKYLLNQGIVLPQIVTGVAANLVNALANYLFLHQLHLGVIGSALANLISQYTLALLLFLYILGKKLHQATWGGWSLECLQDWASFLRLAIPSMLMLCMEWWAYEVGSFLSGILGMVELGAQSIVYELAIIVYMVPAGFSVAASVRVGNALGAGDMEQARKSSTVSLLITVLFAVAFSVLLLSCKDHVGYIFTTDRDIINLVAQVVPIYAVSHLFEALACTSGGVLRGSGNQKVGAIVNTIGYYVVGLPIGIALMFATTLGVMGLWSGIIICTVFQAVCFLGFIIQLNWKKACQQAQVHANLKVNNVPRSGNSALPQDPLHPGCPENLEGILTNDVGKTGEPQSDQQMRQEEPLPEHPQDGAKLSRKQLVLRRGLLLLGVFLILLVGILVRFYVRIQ

CC[C@H](C)[C@H](NC(=O)[C@H](CO)NC(=O)[C@H](Cc1ccc(O)cc1)NC(=O)[C@H](Cc1ccc(O)cc1)NC(=O)[C@H](CC(N)=O)NC(=O)CNC(=O)[C@H](CO)NC(=O)[C@H](Cc1ccc(O)cc1)NC(=O)[C@H](CO)NC(=O)[C@H](CO)NC(=O)[C@H](CC(N)=O)NC(=O)COCCOCCNC(=O)CN1CCN(CC(=O)O)CCN(CC(=O)O)CCN(CC(=O)O)CC1)C(=O)N[C@@H](CC(C)C)C(N)=O [copper-64 labelled]
tissue uptake (dynamic PET; KPC mouse Ptf1a-CreER tdTomato, pancreas; intravenous, 4.6 MBq/mouse, 22.5 min, 84 d after tamoxifen): 12.2 %ID/mL

Cc1ccc(NS(=O)(=O)c2c(C(=O)N3CCCCCC3)c(C)n(C)c2C)c(Cl)c1
viability (HaCaT; 0.015 µM, 60 h): 100% and 93.6%

CC[C@H](C)[C@H](NC(=O)[C@H](CCCCN)NC(=O)[C@H](CCCCN)NC(=O)[C@H](Cc1ccccc1)NC(=O)[C@H](Cc1ccccc1)NC(=O)[C@H](CCCCN)NC(=O)[C@H](CCCCN)NC(=O)[C@H](Cc1ccccc1)NC(=O)[C@H](CCCNC(=N)N)NC(=O)[C@@H](N)CCCCN)C(=O)N[C@@H](CCCCN)C(=O)N[C@@H](CCCCN)C(=O)N[C@@H](CO)C(=O)N[C@H](C(=O)N[C@@H](CCCCN)C(=O)N[C@@H](CCCCN)C(=O)N[C@@H](CCCNC(=N)N)C(=O)N[C@H](C(=O)N[C@@H](CCCCN)C(=O)N[C@@H](CCCCN)C(=O)N[C@@H](CC(C)C)C(=O)N[C@@H](Cc1ccccc1)C(=O)N[C@@H](CCCCN)C(=O)N[C@@H](CCCCN)C(=O)N1CCC[C@H]1C(=O)N[C@@H](CCCNC(=N)N)C(=O)N[C@H](C(=O)N[C@H](C(=O)N1CCC[C@H]1C(=O)N[C@H](C(=O)N[C@@H](CO)C(=O)N[C@H](C(=O)N1CCC[C@H]1C(=O)N[C@@H](Cc1ccccc1)C(=O)O)[C@@H](C)CC)[C@@H](C)CC)[C@@H](C)CC)C(C)C)C(C)C)C(C)C
MIC (Pseudomonas aeruginosa; P1, mouse serum; 1 h, 37 °C): 16 µg/mL (≈ 3.79 µM)

CC(=O)NCCCC[C@@H]1NC(=O)[C@H](Cc2c[nH]c3c(C)cccc23)NC(=O)[C@H]([C@@H](C)O)NC(=O)[C@H](CC(N)=O)NC(=O)[C@@H](NC(C)=O)C(C)(C)SSC(C)(C)[C@@H](C(=O)N[C@@H](Cc2ccc(OCCN)cc2)C(=O)N[C@@H](Cc2ccc3ccccc3c2)C(=O)NC2(C(=O)N[C@@H](CCC(=O)O)C(=O)N[C@@H](CC(N)=O)C(=O)N[C@@H](Cc3cccnc3)C(=O)N(C)CC(N)=O)CCOCC2)NC1=O
uptake rate (SLC47A1 (Homo sapiens, UniProt Q96FL8); substrate; MDCK-II overexpressing transporter; 5 µM, 30 min, added: 100 µM pyrimethamine): 0.164 ± 0.004 pmol/mg/min

CN(C)[C@H]1C[C@@]23CC[C@@]4(O2)C(=CC[C@]2(C)[C@@H](c5ccc6ccncc6c5)CC[C@H]24)C=C3[C@@H](O)[C@@H]1O
inhibition (KSR1 (Homo sapiens, UniProt Q8IVT5); ATP probe labelling, inhibitor, KiNativ profiling; 1 µM): 0.5%

Oc1ccc2c3c1O[C@H]1[C@@H](O)CC[C@H]4[C@@H](C2)N(CC2CCC2)CC[C@@]341
log k amino protonation (phenolate protonated): 9.43

COc1ccccc1-c1n[nH]c2nc(N[C@H]3CC[C@H](NS(=O)(=O)CC(C)C)CC3)ncc12
relative abundance (bead binding, competition bead pull-down, refers to: LINJ.23.0410; Leishmania donovani extract; 10 µM; baseline: vehicle): 0.71

CS(C)(=O)=Nc1ccc(-c2ccc(-c3nc4cc(O[C@@H]5CO[C@H]6[C@@H]5OC[C@H]6O)[nH]c4cc3F)cc2)cc1
inhibition (MAP3K5 (Homo sapiens, UniProt Q99683); enzyme activity, inhibitor; 10 µM): 9%

CC(C)(C)C(=O)OCOP(=O)(OCOC(=O)C(C)(C)C)C1CCCN(O)C1=O (stereo not drawn)
log TGI (Hs-578T): -5.08 log M

CN1CC[C@]23c4c5ccc(O)c4O[C@H]2[C@H](O)C=C[C@@]3(O)[C@H]1C5
log tautomerization constant: 0.33

Cc1nc2cccc(OCC(C)(C)C(=O)NC(C)C)c2c(N)c1C(=O)[O-].[Na+]
revertant colonies per plate (Salmonella typhimurium; TA100; 0.13 mg per plate, with S9, plate incorporation): 116 ± 10

C[C@H]1[C@@H](OCc2cn(-c3cc4ccc(O)cc4oc3=O)nn2)O[C@@H]2O[C@@]3(C)CC[C@H]4[C@H](C)CC[C@@H]1[C@@]24OO3
uptake inhibition (Plasmodium berghei; flow cytometry, refers to: compound uptake in parasites; infected mouse red blood cells; 3 µM, 1 h, added: dihydroartemisinin added 30 min before): 58.8%

Cc1cc(-c2ccc3ccccc3c2)nnc1NCCN1CCN(C)CC1
inhibition (SLC22A1 (Homo sapiens, UniProt O15245); transporter uptake, inhibitor; 10 µM): 23%

COc1ccccc1-c1n[nH]c2nc(NC3CCN(C(=O)Cc4ccc(F)cc4F)CC3)ncc12
relative abundance (bead binding, competition bead pull-down, refers to: LINJ.29.0860; Leishmania donovani extract; 10 µM; baseline: vehicle): 0.99

CN1CC[C@]23c4c5ccc(O)c4O[C@H]2[C@H](O)CC[C@@]3(O)[C@H]1C5
log k amino protonation (phenolate protonated): 9.55

Cc1sc2c(c1C)C(c1ccc(Cl)cc1)=N[C@@H](CC(=O)OC(C)(C)C)c1nnc(C)n1-2
MRT(0-inf) (CD1 mouse, male, plasma; intravenous, 5 mg/kg): 51.7 min

COc1ccc(-n2cc(C(=O)N3C[C@]4(OC(=O)c5ccccc5NC(C)=O)CC[C@H](OC)[C@@]56[C@@H]4C[C@@H]([C@@H]35)[C@@]3(O)C[C@H](OC)[C@H]4C[C@@H]6[C@]3(O)[C@H]4OC)nn2)cc1
concentration (Sprague-Dawley rat, plasma; intravenous, 2 mg/kg, 4.98 min): 81.7 ng/mL

O=C1NC2(CC2)COc2ncc(F)cc2[C@H]2COCCN2c2ccn3ncc1c3n2
organ weight (Sprague-Dawley rat, male, thymus; oral, 2.5 mg/kg/day, 4 weeks): 0.617 ± 0.179 g

Repeated from above:
C[C@H]1[C@@H](OCc2cn(-c3cc4ccc(O)cc4oc3=O)nn2)O[C@@H]2O[C@@]3(C)CC[C@H]4[C@H](C)CC[C@@H]1[C@@]24OO3
uptake inhibition (Plasmodium berghei; flow cytometry, refers to: compound uptake in parasites; infected mouse red blood cells; 3 µM, 1 h, added: dihydroartemisinin added 30 min before): 58.8%

CN(C)[C@H]1C[C@@]23CC[C@@]4(O2)C(=CC[C@]2(C)[C@@H](c5ccc6ccncc6c5)CC[C@H]24)C=C3[C@@H](O)[C@@H]1O
inhibition (KSR1 (Homo sapiens, UniProt Q8IVT5); ATP probe labelling, inhibitor, KiNativ profiling; 1 µM): 0.5%
